Assay results of several laboratories.
Each line is one published result; not all experiments were run side by side.
Matrix: plasma

SMILES	host	route	dose	setting	Tmax [min]
CCOC(=O)c1cc2c(N)c(C(=O)OC)sc2nc1C	male Sprague-Dawley rat	subcutaneous	100 mg/kg		45
NC(=O)c1cccnc1.O.O=c1[nH]cc(F)c(=O)[nH]1.O=c1[nH]cc(F)c(=O)[nH]1.O=c1[nH]cc(F)c(=O)[nH]1	rat	oral	0.06 mmol/kg		15
Cc1cc(/C=C/C#N)cc(C)c1Oc1nc(NC2CCN(Cc3ccc(P(C)(C)=O)cc3)CC2)nc2ccsc12	male Sprague-Dawley rat	oral	10 mg/kg		120
CCCC[C@H](NC(=O)[C@H](CC(C)C)N(C)C(=O)CNC(=O)[C@@H](NC(=O)[C@H](Cc1ccccc1)NC(=O)[C@H](CCCCN)NC(=O)[C@@H](N)CC(=O)O)C(C)C)C(N)=O	female rat	subcutaneous	300 µg/kg		3
CC12CC3CC(C)(C1)CC(NC(=O)Nc1ccc(C(=O)N4CCC[C@H](C(N)=O)C4)cc1F)(C3)C2	Sprague-Dawley rat	intravenous	10 mg/kg		4.8
C[Si]1(C[C@@H](CN)CC(=O)O)CCCC1	male Sprague-Dawley rat	oral	100 mg/kg	single dose	60
C#Cc1cccc(Nc2ncnc3cc(OC)c(OCCCN4CCOCC4)cc23)c1	Sprague-Dawley rat	oral	40 mg/kg		140
CCNC(=O)[C@@H]1CCCN1C(=O)[C@H](CCCNC(=N)N)NC(=O)[C@H](CC(C)C)NC(=O)[C@@H](CC(C)C)NC(=O)[C@H](Cc1ccc(O)cc1)NC(=O)[C@H](CO)NC(=O)[C@H](Cc1c[nH]c2ccccc12)NC(=O)[C@H](Cc1c[nH]cn1)NC(=O)[C@@H]1CCC(=O)N1	male Sprague-Dawley rat	subcutaneous	12.5 mg/kg	single dose	30
Cc1cc(N2CCC(C#N)(C3(C)CC3)C2=O)cc(C(=O)NCc2cc(F)cc(-c3cnn(C)c3)c2)n1 (racemic)	male Sprague-Dawley rat	oral	3 mg/kg		90
C[Si]1(C)CNC(=O)c2ccccc21	rat	oral	5 mg/kg	single dose	48
CC12CC3CC(C)(C1)CC(NC(=O)Nc1ccc(C(=O)N4CCCC(C(N)=O)C4)cc1)(C3)C2 (stereo not shown)	Sprague-Dawley rat	intravenous	10 mg/kg		4.8
Nc1nc(Cl)nc2c1ncn2Cc1cc(OCC(F)F)cc(OC(F)F)c1	Sprague-Dawley rat	oral	5 mg/kg		400
CC(C)(C)C(=O)Nc1ccc2[nH]c(CN3CCC(N(CCCN4CCOCC4)CC4OC(n5cnc6c(N)ncnc65)C(O)C4O)CC3)nc2c1 (stereo not shown)	male Sprague-Dawley rat	intraperitoneal	20 mg/kg		11.4
Cn1cc(-c2cc(N3CCCS3(=O)=O)ccc2N[C@H]2CC[C@H](C)CC2)c2cc[nH]c2c1=O	Sprague-Dawley rat	oral	3 mg/kg		60
COc1cc2ncnc(Oc3ccc(Nc4nccc5[nH]cc(-c6ccc(F)cc6)c(=O)c45)cc3F)c2cc1OC	male Sprague-Dawley rat	oral	10 mg/kg		120
C[Si](C)(C)C[C@@H](CN)CC(=O)O	male Sprague-Dawley rat	oral	30 mg/kg	single dose	60
Cc1ccc(OCC(=O)N(Cc2cccs2)c2ccn[nH]2)cc1	male Sprague-Dawley rat	intravenous	1 mg/kg	single dose	1.8
CC1(C)CC[C@]2(C(=O)O[C@@H]3O[C@H](CO[C@@H]4O[C@H](CO)[C@@H](O)[C@H](O)[C@H]4O)[C@@H](O)[C@H](O)[C@H]3O)CC[C@]3(C)C(=CC[C@@H]4[C@@]5(C)CC[C@H](O[C@@H]6OC[C@H](O)[C@H](O)[C@H]6O)[C@@](C)(CO)[C@@H]5CC[C@]43C)[C@@H]2C1	Sprague-Dawley rat	oral	150 mg/kg		25.2
N#Cc1cnc2cc(OCC3CCNCC3)c(F)cc2c1Nc1cc(F)c(OCc2cccc(Cl)n2)cc1Cl	male Sprague-Dawley rat	oral	100 mg/kg		180

Excerpt of the above:
SMILES	host	route	dose	setting	Tmax [min]
CCCC[C@H](NC(=O)[C@H](CC(C)C)N(C)C(=O)CNC(=O)[C@@H](NC(=O)[C@H](Cc1ccccc1)NC(=O)[C@H](CCCCN)NC(=O)[C@@H](N)CC(=O)O)C(C)C)C(N)=O	female rat	subcutaneous	300 µg/kg		3
NC(=O)c1cccnc1.O.O=c1[nH]cc(F)c(=O)[nH]1.O=c1[nH]cc(F)c(=O)[nH]1.O=c1[nH]cc(F)c(=O)[nH]1	rat	oral	0.06 mmol/kg		15
